Published values gathered from unrelated publications.
Parts stem from different laboratories: compare values within a part only.

Study 1
Target: Histone acetyltransferase KAT6A, winged helix 1, GST fusion (KAT6A, Homo sapiens, UniProt Q92794, residues 1-85)
Technique: protein binding microarray
Form: double-stranded DNA, one strand shown
Matrix: in vitro
Tested at: not given
Notes: 8-mer, flanks averaged, mean of 2 arrays, mostly near background
Relative to: not given
Reading: higher = stronger binding
Construct (chain): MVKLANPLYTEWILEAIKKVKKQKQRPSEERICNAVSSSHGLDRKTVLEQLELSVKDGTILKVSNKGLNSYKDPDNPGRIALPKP
| Strand | E-score |
| --- | --- |
| ACTCACAG | -0.22 |
| CGCACATC | 0.303 |
| ACGATAGT | -0.169 |
| CGTCTACA | 0.102 |
| CAGCACCA | -0.293 |
| GCCCGGAA | 0.135 |
| AGTATGAC | -0.0635 |

Study 2
Target: Ras GTPase-activating protein-binding protein 1, full length (G3BP1, Homo sapiens, UniProt Q13283)
UniProt Q13283, sequence (whole entry, looked up): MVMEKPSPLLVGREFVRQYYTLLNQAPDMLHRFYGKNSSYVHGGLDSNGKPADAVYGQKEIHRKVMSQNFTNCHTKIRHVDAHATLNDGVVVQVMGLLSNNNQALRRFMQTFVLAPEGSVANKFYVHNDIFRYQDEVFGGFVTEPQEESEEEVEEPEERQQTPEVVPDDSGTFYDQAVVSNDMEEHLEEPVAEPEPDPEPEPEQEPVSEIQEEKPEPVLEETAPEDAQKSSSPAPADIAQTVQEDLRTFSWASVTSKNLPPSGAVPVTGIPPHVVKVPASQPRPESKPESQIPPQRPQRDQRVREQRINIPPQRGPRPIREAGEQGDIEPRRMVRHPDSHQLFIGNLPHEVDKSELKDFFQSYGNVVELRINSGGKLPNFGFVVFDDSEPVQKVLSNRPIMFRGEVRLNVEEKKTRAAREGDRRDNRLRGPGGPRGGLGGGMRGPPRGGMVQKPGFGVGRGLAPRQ
Technique: RNA Bind-n-Seq
Form: RNA
Matrix: in vitro
Tested at: 200 nM
Notes: whole 134-nt RNA, ends assumed
With: 150 mM KCl
Relative to: input library
Reading: higher = stronger binding
Constant ends, left off below: GGGAGUUCUACAGUCCGACGAUC … UGGAAUUCUCGGGUGUCAAGG
| Strand | log2 enrichment |
| --- | --- |
| GCAGGAAGUAAAAACAAAUGGACAUGCUUCGGAUAGUGGCAGGGGUGGGGGUUGCUAAGGAAAGGGUGGGAUGGGAGUGGGUAAAGAGUU | 1.18 |
| CACAGACAACACGCACCCACACAGACACAGAGGGAAGGGGUUGGGAUGGGGACAGGGUGCACAGCAGGGCGGGGUAGGACCCCAGCCCUU | 1.79 |
| CAAGUCCUGUGCUACACAUCGUAUGUACCGAAUCGGGGAAAGGGGAAAGGAAAGGGAAAGUAUUAUGUUACGCCGUUCGGAUCUGCACUU | -0.238 |
| GCAGGAAGUAAAAACAAAUGGAAAUGCUUCGGAUAGUGGCAGGGGUGGGGGUUGCUAACGAAAGGGUGGGAUGGGAGUGGGUAAAGAGUU | 0.747 |
| UCCUGUGCUACACAUCGUAUGUACCGAAUCGGGUUUUUGGGAAAAAAAGGGAAAAAGGGAAAGUAUUAUGUUACGCCGUUCGGAUCUGCA | -0.507 |

Study 3
Target: Interferon regulatory factor 5, full length, phosphomimetic (IRF5, Homo sapiens, UniProt Q13568-2, residues 1-514, S451D/S453D/S456D/S462D)
Technique: protein-binding microarray
Form: double-stranded DNA, one strand shown
Matrix: in vitro
Tested at: 940 nM top
Notes: 60-bp whole probe
With: salmon DNA 0.4 mg/ml
Relative to: random background probes
Reading: higher = stronger binding
Constant ends, left off below: GCCTAGCAC … GTCTTGATTCGCTTGACGCTGCTG
| Strand | fitted relative affinity [z-score] |
| --- | --- |
| GATTGGTTGAACATGAACTTGTGCTAG | -0.175 |
| TTAGGTATCCTTGTCCTTTAGTGCTAG | 0.205 |
| GACGGTCTCGGACGGGGGACGTGCTAG | 2.04 |
| GACGGTTTCGGTCTCGTGACGTGCTAG | 12.7 |
| GACGGTATCGACACTTGGGACGTGCTA | 3.04 |
| CACGATCTCAGTCTCGAGACGTGCTAG | 1.78 |
| GACGAACTGAGACTGGCGACGTGCTAG | -0.501 |

Other studies, line by line
| Substance | target | test | system | setting | how to read | endpoint | result |
| --- | --- | --- | --- | --- | --- | --- | --- |
| PhoQ, residues 284 288 289 292 302 303 TASMAF | PhoP, residues 12 14 15 18 19 VQALL (Escherichia coli, UniProt P23836) | Sort-seq, item: YFP reporter | E. coli | PhoQ-PhoP variant library, with: 10 µM Mg2+ | relative to: high Mg2+ state, higher = stronger signaling | fold induction | 15.3 |

Excerpt of the above (study 2):
| Strand | log2 enrichment |
| --- | --- |
| CACAGACAACACGCACCCACACAGACACAGAGGGAAGGGGUUGGGAUGGGGACAGGGUGCACAGCAGGGCGGGGUAGGACCCCAGCCCUU | 1.79 |
| UCCUGUGCUACACAUCGUAUGUACCGAAUCGGGUUUUUGGGAAAAAAAGGGAAAAAGGGAAAGUAUUAUGUUACGCCGUUCGGAUCUGCA | -0.507 |
